Experimental data gathered from unrelated publications.
Every numbered part comes from another study and shows a few of its results, in no order.

Series 1
Target: Protein C-ets-1 (ETS1, Homo sapiens, UniProt P14921, residues 1-441, full length assumed)
Technique: protein-binding microarray
Form: double-stranded DNA, one strand shown
Sample: in vitro
Concentration: not given
Notes: k-mer, scored over probes, only values ≥0.25
Reading: higher = stronger binding
Residues (chain): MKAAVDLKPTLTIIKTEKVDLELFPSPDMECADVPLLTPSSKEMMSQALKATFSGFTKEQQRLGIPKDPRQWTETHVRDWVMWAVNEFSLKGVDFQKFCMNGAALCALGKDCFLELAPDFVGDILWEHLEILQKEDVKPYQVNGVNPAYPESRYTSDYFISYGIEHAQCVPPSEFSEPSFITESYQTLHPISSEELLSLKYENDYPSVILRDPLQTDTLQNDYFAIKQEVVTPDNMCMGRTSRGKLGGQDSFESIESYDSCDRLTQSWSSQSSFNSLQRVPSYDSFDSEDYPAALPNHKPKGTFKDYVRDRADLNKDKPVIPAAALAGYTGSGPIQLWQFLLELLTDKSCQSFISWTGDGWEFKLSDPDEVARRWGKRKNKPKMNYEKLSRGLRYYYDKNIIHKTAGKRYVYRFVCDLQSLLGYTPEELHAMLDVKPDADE
| Oligonucleotide | E-score |
| --- | --- |
| CAGGAAAG | 0.336 |
| AGGAAGTA | 0.459 |
| CCCGCCCG | 0.299 |
| AACGGAAC | 0.355 |
| CGGAACCA | 0.344 |
| ACGGACGC | 0.289 |
| GGAAATCC | 0.426 |
| AGGAAAGG | 0.253 |
| GCATCCTA | 0.346 |
| CCGGTATA | 0.278 |
| ACAGATCC | 0.261 |
| GGACAGGA | 0.418 |
| CCGGAAGG | 0.483 |

Series 2
Target: Interferon regulatory factor 7, full length, phosphomimetic (IRF7, Homo sapiens, UniProt Q92985, residues 1-503, S101K/S471D/S472D/S475D/S476D/S477D/S483D/S484D/S487D)
UniProt Q92985, sequence (whole entry, unmodified, looked up): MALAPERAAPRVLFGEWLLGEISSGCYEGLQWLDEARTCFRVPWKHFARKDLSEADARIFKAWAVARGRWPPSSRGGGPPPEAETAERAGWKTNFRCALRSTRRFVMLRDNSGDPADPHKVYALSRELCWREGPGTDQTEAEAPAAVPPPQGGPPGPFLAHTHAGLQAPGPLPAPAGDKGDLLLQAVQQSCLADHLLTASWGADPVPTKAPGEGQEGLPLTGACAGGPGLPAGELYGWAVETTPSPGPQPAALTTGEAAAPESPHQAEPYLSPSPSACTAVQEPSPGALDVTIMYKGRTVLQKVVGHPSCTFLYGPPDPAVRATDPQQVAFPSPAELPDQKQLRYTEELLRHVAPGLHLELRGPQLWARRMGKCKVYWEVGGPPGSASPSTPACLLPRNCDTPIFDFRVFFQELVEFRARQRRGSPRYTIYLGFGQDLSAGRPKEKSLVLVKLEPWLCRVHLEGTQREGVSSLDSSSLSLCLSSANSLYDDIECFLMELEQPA
Technique: protein-binding microarray
Form: double-stranded DNA, one strand shown
Sample: in vitro
Concentration: 250 nM
Notes: 60-bp whole probe
Together with: salmon DNA 0.4 mg/ml
Reference: random background probes
Reading: higher = stronger binding
All sequences stand within: GCCTAGCAC … GTCTTGATTCGCTTGACGCTGCTG
| Oligonucleotide | log fluorescence [z-score] |
| --- | --- |
| GACGGCCTGGGGACTGGGGACGTGCTA | -0.763 |
| GACGCTATCGGTATCGGGACGTGCTAG | 0.442 |
| GACGGTTTCGGTTCCGAGACGTGCTAG | 12.2 |
| TTAGGACTTGACACTGGGTTAGTGCTA | -0.442 |
| TGGGTATTTTTTCTGAACCAGTGCTAG | 0.354 |
| ATCGTAAGCAAAAATGATTGGTGCTAG | -0.175 |
| GACGGTTTGGACACTGGGGACGTGCTA | -0.451 |
| TCATCTTTATGCACTCTCACTGTGCTA | 0.152 |
| GACGGTTACGACTTTCGGGACGTGCTA | 0.288 |
| GACGCTCTCAGACTGGAGACGTGCTAG | -0.0324 |
| TCAGTTTCGTATCTTCATTGTGTGCTA | 10.6 |
| GATGAACTGGGGTTTCGAGACGTGCTA | 1.93 |
| GCCGGTTTCGGGTATCGGGACGTGCTA | 8.19 |
| TTATGACTGGGACTGGGTTAGTGCTAG | 0.0601 |
| TTTGAACTGGGGTATCGATTAGTGCTA | 0.166 |
| GTGTTATTAAAACTTCATGAAGTGCTA | 1.28 |
| GTAGGTCTCGGTATCGGTTAGTGCTAG | 2.98 |

Series 3
Target: RNA binding protein fox-1 homolog 2, RRM domain, GST-SBP tag (RBFOX2, Homo sapiens, UniProt O43251-10, residues 100-194)
Technique: RNA Bind-n-Seq
Form: RNA
Sample: in vitro
Concentration: 365 nM
Notes: natural RNA segment, single round, ends assumed
Reference: no-protein control
Reading: higher = stronger binding
Target sequence (chain): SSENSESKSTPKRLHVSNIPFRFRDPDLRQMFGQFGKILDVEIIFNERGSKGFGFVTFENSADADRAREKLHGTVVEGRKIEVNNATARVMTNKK
| Oligonucleotide | RBNS enrichment (R) |
| --- | --- |
| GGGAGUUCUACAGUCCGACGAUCCUUAUAAAUGGGGACGUAUUGGAGAAGGAAAUACAUAGACCUACAACUUUGAGCAAAUAGCAGUGAUGUUUUAGGAACUGAAAUGUCACACUUAAAGUCUUCAGCCCAGCUGGAAUUCUCGGGUGCCAA | 0.343 |
| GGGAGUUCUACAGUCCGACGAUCGGUUUAAACCAAACGGAACUCUUCAUCUUAAACUACACGUUGAAAAUCAACCCAAUAAUUCUGUAUUAACUGAAUUCUGAACUUUUCAGGAGGUACUGUGAGGAAGAGCAUGGAAUUCUCGGGUGCCAA | 11.3 |
| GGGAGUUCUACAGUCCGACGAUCUGCUUCUUUAUGCUUUUUCAUUUAAAACAUGUUUUAAAGCAUAUUCUCACUGAGUCUAUUGUUUGUCUUCACAUUGCUGAUGGAACGAAAUGUUGACACUCAGUGAUGUGUGGAAUUCUCGGGUGCCAA | 0.331 |
| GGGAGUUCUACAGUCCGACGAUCCAGUCUGAGCUGACUCCCUUCAGUGUGACCCCACUGUGUGGUUCCAUGGUCUUCGAUGUGGUUUUCAUUUACUGGUCAGGGGGCACCUCCCUGUAUUAGAAAUCUUGGAGUGGAAUUCUCGGGUGCCAA | 0.373 |
| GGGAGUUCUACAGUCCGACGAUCAAAAGCAAGGGAAGUGGCUACUUUGGAAUGCUCUUUAUAAUUUUUAUAAGCUGAAUUUUAUAUGUUACUGUAUAUAGUAUUUAUUUGAUUUUACUUACGCUACCUCUCCAUGGAAUUCUCGGGUGCCAA | 0.694 |
| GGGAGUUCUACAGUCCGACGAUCGGUAUAUUUGAAGAGCUUGGGAUGGAUUUGACUAAAUCUGCCCCGAGGAGGGUGAACAAGGUGAUCUCAGAGAUCACUACUGCUCUUGGAGUUCCUUCUCCUAAAGCUAAUGGAAUUCUCGGGUGCCAA | 0.412 |
| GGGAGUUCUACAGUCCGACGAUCUCAGUGGCCCCAAGAGGGAGCUGAUAUCAUGAGGAUAACAUUGGCGGGAGGGGAGUUAACUGGCAGGCAUGGCAAGGUUGCAUAUGUAAUAAAGUACAAGCUGUUAAAAAUGGAAUUCUCGGGUGCCAA | 1.01 |
| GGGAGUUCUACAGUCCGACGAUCAGGCGGUGAGCCAGGCUGCAGGAAGGAGCCUCCCUCAGGGUUUCGGGAACCAGACCUCUCACCGGAAAGACCGAUUAACCAUGUCACCACCACGCCAUCAUCGUCACCGUUGGAAUUCUCGGGUGCCAA | 0.431 |

Single results of other studies
| Molecule | target or system | test | system | conditions | how to read | measurement | result |
| --- | --- | --- | --- | --- | --- | --- | --- |
| PPVIIKYIIINRF | Saccharomyces cerevisiae | peptide binding, yeast competitive growth sequencing | peptide, cyclin-Cln2 fusion strain | concentration not given, library 2 | direction not given | binding score | 0.761 |
| PhoQ, residues 284 288 289 292 302 303 NLALSC | PhoP, residues 12 14 15 18 19 VQALL (Escherichia coli, UniProt P23836) | Sort-seq, refers to: YFP reporter | E. coli | PhoQ-PhoP variant library, together with: 10 µM Mg2+ | reference: high Mg2+ state, higher = stronger signaling | fold induction | 1.36 |
| LLKRLQDVVSERA | Saccharomyces cerevisiae | peptide binding, yeast competitive growth sequencing | peptide, cyclin-Cln2 fusion strain | concentration not given, library 2 | direction not given | binding score | 0.874 |

Excerpt of the above (series 2):
| Oligonucleotide | log fluorescence [z-score] |
| --- | --- |
| GACGGTTTGGACACTGGGGACGTGCTA | -0.451 |
| TCATCTTTATGCACTCTCACTGTGCTA | 0.152 |
